Results gathered from unrelated publications.
Each line is one published result; not all experiments were run side by side. Numbers after ± are the reported error.

With `COc1cc(CC(O)C(=O)O)ccc1O` (centres unmarked) the unbound fraction was 0.83 (ultrafiltration; rat plasma).
The unbound fraction of `Cc1ccc(NC(=O)N2CCCN3CCC(c4ccc(C#CC5CCCC5O)cc4)C3C2)cc1` (centres unmarked) is reported as 0.0053 (equilibrium dialysis; CD-1 mouse plasma; 2 µM).
For `Nc1ccc(-c2ccncc2)cc1NC(=O)N1Cc2ccccc2C1`, the unbound fraction was 0.23 (brain tissue).
For `COc1ccc(Nc2nccc(-c3c[nH]nc3-c3cccnc3)n2)cc1`, the unbound fraction was 0.15 (human plasma; 10 µM).
`O=C(O)C(O)Cc1ccc(O)c(O)c1` (centres unmarked) has an unbound fraction of 0.98 (ultrafiltration; rat plasma).
For `O=C(N[C@@H](Cc1ccc(OCCCCC2CCNCC2)cc1)C(=O)O)c1nc2ccccc2o1.O=C(O)C(F)(F)F`, the unbound fraction was 0.95 ± 0.21% (rapid equilibrium dialysis; human platelet-free plasma; 2 µM, 24 h, 37 °C).
`Nc1ccc(-c2ccc(F)cc2)cc1NC(=O)N1CC2(COC2)C1` gave an unbound fraction of 0.22 (brain tissue).
With `CN1C(=O)C2(Nc3ccccc3C(=O)N2Cc2ccccc2)c2cc(Br)ccc21` (centres unmarked) the unbound fraction was 0.019 ± 0.005 (human plasma).
`C=C(C)C(=O)Nc1ccc(-c2c(-c3ccc(Oc4nccc(C)n4)cc3)c3c(N)ncnc3n2C)cc1` gave an unbound fraction of 0.0013 (human plasma; 5 µM, 18 h).
With `O=C(c1ccccc1)c1cc(O)c(-c2cc(Cl)cc(Cl)c2)c(O)c1` the unbound fraction was 0.0016 (equilibrium dialysis; rat plasma; 2 µg/mL, pH 7.4, 37 °C).
With `CC(C)C[C@@H]1NC(=O)CNC(=O)[C@H](CC(N)=O)NC(=O)[C@H](CCCNC(=N)N)NC(=O)[C@H]([C@@H](C)O)NC(=O)[C@@H]2CSSC[C@@H]3NC(=O)[C@H]([C@@H](C)O)NC(=O)CNC(=O)CNC(=O)[C@H](C(C)C)NC(=O)[C@@H]4CSSC[C@H](NC(=O)[C@H]([C@@H](C)O)NC(=O)[C@H](CSSC[C@H](NC(=O)[C@H](C(C)C)NC(=O)[C@@H]5CCCN5C1=O)C(=O)NCC(=O)N[C@@H](CCC(=O)O)C(=O)N[C@@H]([C@@H](C)O)C(=O)N4)NC(=O)CNC(=O)[C@@H]1CCCN1C(=O)[C@H]([C@@H](C)O)NC(=O)[C@H](CC(N)=O)NC3=O)C(=O)N[C@@H](CO)C(=O)N[C@@H](Cc1c[nH]c3ccccc13)C(=O)N1CCC[C@H]1C(=O)N[C@@H](C(C)C)C(=O)N2` the unbound fraction was 0.13 ± 0.08 (equilibrium dialysis; rat brain homogenate; 1 µM, 24 h, 37 °C).
For `COc1ccc(NC(=O)N2CCCN3CCC(c4ccc(C#CC5CCCCC5)cc4)C3C2)cc1` (centres unmarked), the unbound fraction was under 0.0001 (equilibrium dialysis; CD-1 mouse plasma; 2 µM).
For `CCN(c1nc(N[C@H](CC(N)=O)C(=O)NC)nc(N2CCN(c3ccccc3C#N)CC2)n1)C1CCCCC1`, the unbound fraction was 0.118 (plasma human).
The unbound fraction of `Cc1cnc(Nc2cc(C)c(C)c(C)c2)nc1Nc1ccc2oc(=O)[nH]c2c1` is reported as 0.24% (rat plasma).
`Brc1ccccc1-c1nnc(CSc2nnnn2-c2ccccc2)o1` has an unbound fraction of 2.3% (equilibrium dialysis; rat brain homogenate).
With `CN1C(=O)[C@@H](Cc2ccc(O)c(I)c2)NC(=O)CNC(=O)[C@H](Cc2ccc3ccccc3c2)NC(=O)[C@H](CCCNC(=N)N)NC(=O)[C@H]1CCCNC(=O)c1ccc(CNC(=O)CN2CCN(CC(=O)O)CCN(CC(=O)O)CCN(CC(=O)O)CC2)cc1` [lutetium-177 labelled] the unbound fraction was 0.032 (ultrafiltration; human plasma; 15 min at room temperature).
The unbound fraction of `Cc1ccc(NC(=O)N2CCCN3CCC(c4ccc(C#CC5(O)CCCCC5)cc4)C3C2)cc1` (centres unmarked) is reported as 0.0019 (equilibrium dialysis; CD-1 mouse plasma; 2 µM).

Excerpt of the above:
The unbound fraction of `Cc1ccc(NC(=O)N2CCCN3CCC(c4ccc(C#CC5CCCC5O)cc4)C3C2)cc1` (centres unmarked) is reported as 0.0053 (equilibrium dialysis; CD-1 mouse plasma; 2 µM).
For `Nc1ccc(-c2ccncc2)cc1NC(=O)N1Cc2ccccc2C1`, the unbound fraction was 0.23 (brain tissue).
